# Assay results collected from several papers.
# Each line is one published result; not all experiments were run side by side. Several values in a cell are separate wells, animals, samples, runs or records. ± marks the error that the study gave.
# Cell line: MDA-MB-231
SMILES,observed,method,time,notes,IC50
O=C(Cc1ccc(Br)cc1)N1CCN(CC(OCc2ccc3ccccc3c2)c2ccc(Cl)cc2Cl)CC1 (stereo not drawn),cell growth or viability,MTT,24 h,,17.2 µM
C#CCCCC[C@H](C)C[C@@H](C)C(=O)N(C)[C@H](C(=O)N(C)[C@@H](Cc1ccccc1)C(=O)N1CCC[C@H]1C(=O)N1CCC[C@H]1C(C)=O)C(C)C,cell growth or viability,SRB,,,1.15 µM and 1.18 µM and 1.64 µM
C[C@H]1[C@H](OC(=O)CCC(=O)OCCC2CCN(CC(=O)Nc3ccc([N+](=O)[O-])c(C(F)(F)F)c3)CC2)O[C@@H]2O[C@@]3(C)CC[C@H]4[C@H](C)CC[C@@H]1[C@@]24OO3,cell growth or viability,CCK-8,,,> 50 µM
C#CCCCC[C@H](C)C[C@@H](C)C(=O)N[C@@H](C)C(=O)N1CCC[C@H]1C(=O)N[C@H](C(=O)N[C@H](C(=O)N[C@H](C(=O)N[C@@H](Cc1ccccc1)C(=O)N1CCC[C@H]1C(=O)N1CCC[C@H]1C(C)=O)C(C)C)C(C)C)C(C)C,cell growth or viability,SRB,,,6.69 µM and 7.15 µM and 7.03 µM
CCC1=C(C)C2=C(c3ccc(C(=O)NCCNC(=O)c4ccc(P(=NC(=O)c5ccccn5)(c5ccccc5)c5ccccc5)cc4)cc3)c3c(C)c(CC)c(C)n3[B-](F)(F)[N+]2=C1C,cell viability,MTT,72 h,0.1% DMSO,not toxic
CC1CCC2C(C)C(OC(=O)CCC(=O)OC3C(C)OC(n4cc(F)c(=O)[nH]c4=O)C3OC(=O)CCC(=O)OC3OC4OC5(C)CCC6C(C)CCC(C3C)C46OO5)OC3OC4(C)CCC1C32OO4 (stereo not drawn),cell growth or viability,CCK-8,,,> 50 µM
Cc1ccccc1/C=C/C(=O)N[C@@H](CO)C(=O)N[C@H](C(=O)N[C@H](Cc1ccccc1)C(=O)N[C@@H]1C(=O)N2[C@@H](CC(=O)O)C(=O)Nc3ccccc3[C@@]2(O)[C@@H]1O)[C@@H](C)O,,,,,> 20 µM
CCC1=C(C)C2=C(c3ccc(C(=O)NCCNC(=O)c4ccc(P(=NC5=[O+][Ru-]([Cl])[n+]6ccccc65)(c5ccccc5)c5ccccc5)cc4)cc3)c3c(C)c(CC)c(C)n3[B-](F)(F)[N+]2=C1C.Cc1ccc(C(C)C)cc1.Cl,cell viability,MTT,72 h,0.1% DMSO,116 ± 13.3 µM
Cc1cc(Oc2nc(N3CC[C@@H](c4ccncc4)C3)ncc2F)[nH]n1,cell growth or viability,,,,> 100 µM
CC1CCC2C(C)C(CCCOC(=O)C(Cc3ccc(N(CCCl)CCCl)cc3)NC(=O)OC(C)(C)C)OC3OC4(C)CCC1C32OO4 (stereo not drawn),cell growth or viability,CCK-8,,,> 50 µM
CCC1=C(C)C2=C(c3ccc(P(=NC4=[O+][Ru-]([Cl])[n+]5ccccc54)(c4ccccc4)c4ccccc4)cc3)c3c(C)c(CC)c(C)n3[B-](C)(C)[N+]2=C1C.Cc1ccc(C(C)C)cc1.Cl,cell viability,MTT,72 h,0.1% DMSO,68.2 ± 8.2 µM
CCCc1cc2cc(-n3nc(CC)c4c3CC3(CCC3)CC4=O)cc(N3CCC(O)CC3)c2c(=O)[nH]1,cell growth or viability,MTS,,,2.89 µM
COc1ccc(CC(=O)N2CCN(CC(OCc3ccc4ccccc4c3)c3ccc(Cl)cc3Cl)CC2)cc1 (stereo not drawn),cell growth or viability,MTT,24 h,,24.5 µM
COC(=O)[C@H](C(C)C)N(C)C(=O)[C@H](C(C)C)N(C)C(=O)[C@@H]1CCCN1C(=O)[C@H](C)N(C)C(=O)OC(C)(C)C,cell growth or viability,SRB,,,61.1 µM and 52.5 µM and 55.8 µM
CC(C)C12OC1C1OC13C1(C)CCC4=C(COC4=O)C1CC1OC13C2OC(=O)CCC(=O)OC1OC(CO)C(O)C(O)C1O (stereo not drawn),cell growth or viability,XTT,47 h,,0.28 µM

# A few entries again:
SMILES,observed,method,time,notes,IC50
C#CCCCC[C@H](C)C[C@@H](C)C(=O)N(C)[C@H](C(=O)N(C)[C@@H](Cc1ccccc1)C(=O)N1CCC[C@H]1C(=O)N1CCC[C@H]1C(C)=O)C(C)C,cell growth or viability,SRB,,,1.15 µM and 1.18 µM and 1.64 µM
